Published values from different studies.
Each line is one published result; not all experiments were run side by side. Numbers after ± are the reported error.
B1: protein R10A (Xanthomonas citri, UniProt A0AAI8ETV0); chain MIQDTRRAPARQPTDLLPVIDTLSEVQIGRVGNVSETGMLLLASVPLHDDALYQLRFSLPERVGRATEIDVGVHLLWSEAAHAPGQAWAGFRFLTMSEPHRQRLRAWIAEEHLAG
B2: antibody (Homo sapiens); chain 1 QVQLVQSGSELKKPGASVKVSCKASGYTFTSYAMNWVRQAPGQGLEWMGWINTNTGNPTYAQGFTGRFVFSLDTSVSTAYLQISSLKAEDTAVYYCARGQPPVGWTFDYWGQGTLVTV; chain 2 QSALTQPPSASGSPGQSVTISCTGTSSDVGGYNYVSWYQQHPGKAPKLMIYEVSKRPSGVPDRFSGSKSGNTASLTVSGLQAEDEADYYCSSYAGSNNLVFGGTKLTVL
UniProt P56696, sequence (whole entry, looked up): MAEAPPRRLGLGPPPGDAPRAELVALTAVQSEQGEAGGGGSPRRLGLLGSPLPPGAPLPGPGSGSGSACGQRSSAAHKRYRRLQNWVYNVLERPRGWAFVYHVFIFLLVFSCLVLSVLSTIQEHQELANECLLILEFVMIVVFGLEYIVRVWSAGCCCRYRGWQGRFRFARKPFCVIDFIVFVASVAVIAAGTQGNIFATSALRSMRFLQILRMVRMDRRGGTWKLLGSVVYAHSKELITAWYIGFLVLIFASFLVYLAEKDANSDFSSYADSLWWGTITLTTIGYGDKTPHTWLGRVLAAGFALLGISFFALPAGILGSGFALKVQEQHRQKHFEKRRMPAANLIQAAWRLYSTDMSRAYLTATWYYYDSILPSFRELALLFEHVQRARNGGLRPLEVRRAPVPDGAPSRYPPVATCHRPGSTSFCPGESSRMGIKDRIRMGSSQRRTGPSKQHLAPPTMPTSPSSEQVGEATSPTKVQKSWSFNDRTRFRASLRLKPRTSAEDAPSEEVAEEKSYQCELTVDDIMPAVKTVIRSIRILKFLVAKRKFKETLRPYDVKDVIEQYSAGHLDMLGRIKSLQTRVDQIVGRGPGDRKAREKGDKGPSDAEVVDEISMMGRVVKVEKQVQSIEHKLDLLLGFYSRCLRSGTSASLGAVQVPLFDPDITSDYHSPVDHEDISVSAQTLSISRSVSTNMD
UniProt Q62897, sequence (whole entry, looked up): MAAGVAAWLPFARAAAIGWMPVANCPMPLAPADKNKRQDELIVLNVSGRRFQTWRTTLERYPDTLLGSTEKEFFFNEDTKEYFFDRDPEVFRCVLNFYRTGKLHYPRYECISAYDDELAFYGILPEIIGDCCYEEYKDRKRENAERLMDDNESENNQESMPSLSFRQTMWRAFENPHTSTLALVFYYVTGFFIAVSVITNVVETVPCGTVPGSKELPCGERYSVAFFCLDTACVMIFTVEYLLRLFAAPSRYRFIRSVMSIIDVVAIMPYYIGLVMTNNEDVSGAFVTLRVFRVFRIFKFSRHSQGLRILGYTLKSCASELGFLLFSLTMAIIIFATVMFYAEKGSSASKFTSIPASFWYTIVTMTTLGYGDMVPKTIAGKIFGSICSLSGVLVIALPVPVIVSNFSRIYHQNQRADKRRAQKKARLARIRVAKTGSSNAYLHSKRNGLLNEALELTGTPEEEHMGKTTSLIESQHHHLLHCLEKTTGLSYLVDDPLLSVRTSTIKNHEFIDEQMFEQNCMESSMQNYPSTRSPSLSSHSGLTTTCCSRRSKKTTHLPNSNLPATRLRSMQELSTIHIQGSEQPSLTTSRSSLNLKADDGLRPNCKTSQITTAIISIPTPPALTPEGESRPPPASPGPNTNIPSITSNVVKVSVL
UniProt Q03405, sequence (whole entry, looked up): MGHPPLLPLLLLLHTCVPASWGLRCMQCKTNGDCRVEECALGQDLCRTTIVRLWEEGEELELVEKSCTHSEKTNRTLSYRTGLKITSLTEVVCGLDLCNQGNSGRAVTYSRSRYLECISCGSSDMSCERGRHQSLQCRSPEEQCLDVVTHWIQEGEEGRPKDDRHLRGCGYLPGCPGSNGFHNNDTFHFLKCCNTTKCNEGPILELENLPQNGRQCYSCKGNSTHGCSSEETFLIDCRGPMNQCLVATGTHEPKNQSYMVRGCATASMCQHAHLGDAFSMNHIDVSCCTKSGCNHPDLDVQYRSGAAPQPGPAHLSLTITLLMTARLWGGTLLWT

Molecule	target or system	assay	test system	setting	scale	quantity	value
main protease (SARS-CoV-2)	itself	native MS	–	5 µM, apo	–	dimer fraction	69 ± 3%
ACE2/pIgR VHH6 Fc fusion ACE2 , Fc at C-terminus (Homo sapiens)	spike RBD RBD (SARS-CoV-2, UniProt P0DTC2)	BLI	–	–	–	Kd	26.2 nM
JZTX-V (UniProt Q2PAY4)	Kcnd3 (Rattus norvegicus, UniProt Q62897)	washout recovery, whole-cell patch clamp	–	exponential fit	–	τoff	58.8 s
KLNDLCFTNVYADSF	human CD4 T cells	AIM	peptide	–	–	responding donors	8%
PLAU two-chain form, DIP-inactivated	PLAUR (Homo sapiens, UniProt Q03405)	migration	MCF-7 M5	10 nM, 6 h	higher = more migration	cell migration	2 fold
RTCKDLIPVSECTDIRCRTSMKYRLNLCRKTCGSC (HmK mature (Heteractis magnifica, UniProt O16846))	KCNA3 (Homo sapiens, UniProt P22001-1)	channel current block, two-electrode voltage clamp	peptide	–	–	koff	0.0034 s⁻¹
B1 (protein R10A)	hemK (Xanthomonas citri, UniProt A0AAI7ZDL3)	ITC	–	–	–	Kd	190000 ± 148000 nM
BKRF4 fragment W84Y (Epstein-Barr virus)	H2A/H2B dimer (Homo sapiens)	ITC	–	25 °C, NaCl 0.5 M	–	Kd	2500 nM
LEAPFLYLY	–	AIM	peptide, CD8+ T cells from PBMC, human donors	dose not given	–	response magnitude per positive donor	112
EVIKKDTPYKKRKFPYKSECLKACATSFTGGDESRIQEGKPGFFKCTCYFTTG (protein mature, disulfides Cys20-Cys46, Cys24-Cys48 (Scolopendra subspinipes mutilans, UniProt A0A2L0ART2); disulfides Cys20-Cys46, Cys24-Cys48)	KCNQ4 (Homo sapiens, UniProt P56696)	channel inhibition, inhibitor	peptide	10 µM	–	onset time constant	0.086 s
B2 (antibody)	SARS-CoV-2 spike peptide fragment (SARS-CoV-2)	BLI	antibody	–	–	Kd	3.2 nM
MnTx-1 mature (Pterinochilus murinus, UniProt C0HMD2)	KCNA1 (Homo sapiens, UniProt Q09470)	K+ current inhibition, inhibitor, patch-clamp	–	whole-cell	–	IC50	1.1 nM
ORF45 fragment (Kaposi's sarcoma-associated herpesvirus)	H2A/H2B dimer (Homo sapiens)	magnetic tweezers	–	inner wrap	–	rupture force	14 pN
PSIP1 D366N (Homo sapiens)	HIV-1 integrase mature (HIV-1)	HIV-1 integration into naked DNA, activator	–	–	relative to: wild-type LEDGF/p75, higher = stronger stimulation	integration stimulation	12%
